Measurements pooled from the literature.
Numbered parts are unrelated; each lists some results of a single study. Substitutions count along the parent as printed.

Block 1
Target: RNA binding protein fox-1 homolog 2, RRM domain, GST-SBP tag (RBFOX2, Homo sapiens, UniProt O43251-10, residues 100-194)
Method: RNA Bind-n-Seq
Molecule type: RNA
Sample: in vitro
Tested at: 365 nM
Notes: natural RNA segment, single round, ends assumed
Relative to: no-protein control
Direction: higher = stronger binding
Shared flanks, not repeated: GGGAGUUCUACAGUCCGACGAUC … UGGAAUUCUCGGGUGCCAA
Target sequence (chain): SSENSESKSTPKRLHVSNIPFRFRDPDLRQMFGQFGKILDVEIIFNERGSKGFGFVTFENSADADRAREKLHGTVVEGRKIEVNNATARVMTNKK
Oligonucleotide | RBNS enrichment (R)
CCGUGGGGAGAGGUGAGUGGCAUUACAAGAAAUUUAGGCUUUAUUCAGAAGGCAACAGGGAGUCCCUAAGAAUGUUUUUCAAAAAGGGACAUUAAGGCGAUUGGAGUUAU | 0.902
CAAGGCUGACUCGCUUUCACCAGGGCCACCAGGGCCAUCCAGUGUUGUUUAAUUACAGUCGGAAAGACUUAAGGUUUUUCUUUUAAUUUAAUUUAUUCCCUGACAUUGCU | 0.399
CUCACUCUUUUUUUUUAGUUACUAAUCAUUUUAUGAAAAUAAUGUAUUUAUAAGUAUUUUCUUAAGGUUUGUGAAGAGUAUUUGCAUUGUGUCUUCAUUUUAAUGUGUUU | 1.81
CUAAUCAUGGAUUUUUUGAACAUGUUAUUGCAGUGAUUCUCAAAUUAACUGUAUUGGUGUAAGAGUUUUGUCAUUAAGUGUUUAAGUGUUAUUCUGAAUUUUCUACCUUA | 0.458
GAAACACACCGACUGCCUCAGCAAUCAUGCAAAGACCUUGCCUGGCCCGGUGGCAAGCGCUGAAAAACCGACCGCCUGUAGGCUCCUGGAACUAUACAGAUAGGUAAAGA | 0.707
GACUGACGUAAGGACCCCCGACCGACCUCAUCUUGUUAAGUUAACGGAGACCCUUCUUGUUGAAGGGGCCUGCUGCUAGUAACCUUUGCAAUGUUCUGCUUUUAAUAUGU | 1.03
AGUAAAGCCUUCAUAGCGAGUGGAUGGGAUGAGGUGUGGCACACAUCCCCGGGAGUGCUCGUGGGAAGUGGCCUCCACAGAAGGUAGUCAUCUUCAUCCUCUAGGACAUU | 0.374
CCAUGUCCAAAUAAUGAGCGUAUUUUCAUGUGGUCUUCACUGCAUUUGGUUUUGUUUCUGAUUUCAUGUUCCUUUGAGGUACAGUCAGAUGAAAAUGCUGAGUUCUGAGA | 0.626
UGUCCAAUGGAUGAAGUUGAUUCAUAUUGCAUCAUAGUGUGUCAUAUUUAAGCUCACAUUAGAGUUAAGUUGUAUUUUAUGUUAUUUAUAGAUCUGAAUUUUCUAUGUUU | 0.821
CCUCCCCCCGGCUUCGUGCCCUUUGGAUGACACAAAAACUUCAUACACCAGUGACUGUCGGGCAGGGCAAGCGCCCUGGUCACAGACCCCAGAAACAUGACCUCCCACUG | 0.289
AAGUCACCAGGACUUGGGGUCAGGAACAGUGGCUGGGUGGGCCCAGAACUGCCCCCACUGUCCCCCUACCCACCGAUGGAGCCCCCAGAUAGAGCUGGGUGGCCUGUUUC | 0.333
UAGACCAUAACUAUACUGCUUUCAUCUGGUUCACCCCCUCUAUGUCAAGAGUCAAACUGUGUGAGAAAAGCCAAAGAUUUUUUUUUGAGUCCUUUUGAAGACAGCUAGCU | 0.469

Block 2
Target: UBE2R2 UBC core domain (UniProt Q712K3)
Chain of UniProt Q712K3 (whole entry, looked up): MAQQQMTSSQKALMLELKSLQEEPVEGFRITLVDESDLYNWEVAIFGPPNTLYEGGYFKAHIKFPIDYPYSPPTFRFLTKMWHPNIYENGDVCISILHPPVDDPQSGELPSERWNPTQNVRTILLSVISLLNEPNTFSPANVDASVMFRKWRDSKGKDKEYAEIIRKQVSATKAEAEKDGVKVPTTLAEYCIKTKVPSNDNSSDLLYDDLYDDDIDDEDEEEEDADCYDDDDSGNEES
Method: yeast two-hybrid
Sample: yeast
Notes: mostly zero background
Relative to: not given
Direction: higher = stronger interaction
B1: MAP3K1 RING domain (UniProt Q13233); chain NSIKDEEEQMCPICLLGMLDEESLTVCEDGCRNKLHHHCMSIWAEECRRNREPLICPLCRSKWRSHDFYS
B2: RBCK1 RING domain (UniProt Q9BYM8); chain SLVLNTEPAECPVCYSVLAPGEAVVLRECLHTFCRECLQGTIRNSQEAEVSCPFIDNTYSCSGKLLEREIK
B3: TRIM62 RING domain (UniProt Q9BVG3); chain MACSLKDELLCSICLSIYQDPVSLGCEHYFCRRCITEHWVRQEAQGARDCPECRRTFAEPALAP
B4: SH3RF1 RING domain (UniProt Q7Z6J0); chain DESALLDLLECPVCLERLDASAKVLPCQHTFCKRCLLGIVGSRNELRCPECRTLVGSGVEEL
B5: MDM4 RING domain (UniProt O15151); chain MEDCQNLLKPCSLCEKRPRDGNIIHGRTGHLVTCFHCARRLKKAGASCPICKKEIQLVIKVF
B6: RFWD3 RING domain (UniProt Q6PCD5); chain ASMDEEEGDTCTICLEQWTNAGDHRLSALRCGHLFGYRCISTWLKGQVRKCPQCNKKARHSDIVV
B7: SYTL4 RING domain (UniProt Q96C24); chain RGSQHYSDRTCARCQESLGRLSPKTNTCRGCNHLVCRDCRIQESNGTWRCKVCAKEIELKKAT
B8: RNF19A RING domain (UniProt Q9NV58); chain ISKQIGDFIECPLCLLRHSKDRFPDIMTCHHRSCVDCLRQYLRIEISESRVNISCPECTERFNPHDIR
B9: UBOX5 RING domain (UniProt O94941); chain EQPGSILGPECASCKRVFSPYFKKEPVYQLPCGHLLCRPCLGEKQRSLPMTCTACQRPVASQDVLR
Sequence | lacZ reporter activity
NLSELTPYILCSICKGYLIDATTITECLHTFCKSCIVRHFYYSNRCPKCNIVVHQTQPLY (PCGF6 RING domain (UniProt Q9BYE7)) | 0
B1 (MAP3K1 RING domain) | 0
KETIKKTTKPCPRCHVPVEKNGGCMHMKCPQPQCRLEWCWNCGCEWNRVCMG (PRKN RING domain (UniProt O60260)) | 0
B2 (RBCK1 RING domain) | 0
B3 (TRIM62 RING domain) | 0
B4 (SH3RF1 RING domain) | 0
YQNEVDDDLVCHICLQPLLQPLDTPCGHTFCYKCLRNFLQEKDFCPLDRKRLHFKLCKK (LNX2 RING domain (UniProt Q8N448)) | 0
AVPSGLEENLCKICMDSPIDCVLLECGHMVTCTKCGKRMNECPICRQYVIRAVHVF (RFFL RING domain (UniProt Q8WZ73)) | 0
B5 (MDM4 RING domain) | 0
B6 (RFWD3 RING domain) | 0
B7 (SYTL4 RING domain) | 0
GSDDEEIPFKCFICRQSFQNPVVTKCRHYFCESCALQHFRTTPRCYVCDQQTNGVFNPA (RNF113A RING domain (UniProt O15541)) | 0
B8 (RNF19A RING domain) | 0
B9 (UBOX5 RING domain) | 0
KLRKLKEAMLCMVCCEEEINSTFCPCGHTVCCESCAAQLQSCPVCRSRVEHVQHVY (MYLIP RING domain (UniProt Q8WY64)) | 0
FDGDVDPDLKCALCHKVLEDPLTTPCGHVFCAGCVLPWVVQEGSCPARCRGRLSAKELN (PDZRN3 RING domain (UniProt Q9UPQ7)) | 0

Block 3
Target: ABI1, truncated, D143A, DHFR fusion (Arabidopsis thaliana)
Method: DHFR PCA, deep sequencing
Sample: yeast
Notes: methotrexate growth selection, single substitutions
With: (+)-ABA 0.11 µM
Relative to: wild-type fitted maximum
Direction: higher = stronger binding
Parent: PYL1, truncated, DHFR fusion (Arabidopsis thaliana); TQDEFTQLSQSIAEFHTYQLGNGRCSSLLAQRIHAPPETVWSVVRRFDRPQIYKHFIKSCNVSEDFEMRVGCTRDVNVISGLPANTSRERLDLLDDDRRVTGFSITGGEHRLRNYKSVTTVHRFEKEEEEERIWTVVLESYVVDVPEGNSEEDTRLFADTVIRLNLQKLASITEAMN
Change | relative binding score [%]
I57Y | 0.419
L29V | 34.8
S27R | 5.35
D153A | 0.747
R163M | 30.8
E152I | 6.17
N22M | 20.8
A158G | 4.32
Y141F | 0.77
V136F | -0.764

Block 4
Target: CCND3, cyclin fold, Cln2 fusion (human)
Method: yeast growth competition, sequencing
Sample: yeast
Notes: weak parent motif
Relative to: not given
Direction: higher = stronger binding
Parent: RRM2 docking peptide (human); SKTARRIFQEPTE; partner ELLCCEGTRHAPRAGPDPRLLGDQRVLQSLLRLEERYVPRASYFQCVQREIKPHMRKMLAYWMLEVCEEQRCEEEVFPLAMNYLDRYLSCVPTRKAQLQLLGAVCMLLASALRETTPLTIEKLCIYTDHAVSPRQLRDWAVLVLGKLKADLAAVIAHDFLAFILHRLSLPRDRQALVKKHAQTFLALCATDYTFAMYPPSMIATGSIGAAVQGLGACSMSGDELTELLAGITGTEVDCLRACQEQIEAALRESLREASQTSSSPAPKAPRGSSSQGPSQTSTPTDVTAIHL
Change | normalised enrichment score
SKTAARIFQEPTE [R5A] | 0.232
SKTARAIFQEPTE [R6A] | 0.0545
AKTARRIFQEPTE [S1A] | 0.305
SKTARRIFQAPTE [E10A] | 0.0487
SKTARRIFQEATE [P11A] | 0.287
SKTARRIAQEPTE [F8A] | 0.459

Block 5
Target: Prothrombin, mature alpha-thrombin (F2, Homo sapiens, UniProt P00734)
Method: aptamer microarray, sandwich
Molecule type: DNA with 2'F-ANA
Sample: in vitro
Tested at: 200 nM
Notes: whole 15-mer aptamer, many near background
With: Cy3 exosite-II aptamer, 400 nM
Direction: higher = stronger binding
Oligonucleotide: GGTTGGTGTGGTTGG
Modification | mean fluorescence intensity [a.u.]
2'F-ANA at 2 8 11 13 15 | 354
2'F-ANA at 3 8 10 15 | 586
2'F-ANA at 1 3 5 6 10 11 12 13 14 15 | 48.1
2'F-ANA at 2 5 6 10 11 13 | 45.3
2'F-ANA at 1 2 5 7 8 11 14 | 46.5
2'F-ANA at 2 3 4 5 6 7 8 11 12 14 | 77.6
2'F-ANA at 1 2 3 4 5 8 10 12 14 | 49.1
2'F-ANA at 1 2 6 8 11 12 13 14 | 64.8
2'F-ANA at 6 8 11 12 13 14 15 | 180
2'F-ANA at 4 8 15 | 402
2'F-ANA at 4 8 12 13 14 | 139
2'F-ANA at 2 5 6 7 9 13 15 | 51
2'F-ANA at 1 2 7 8 10 12 13 15 | 67.3
2'F-ANA at 1 7 8 9 10 13 14 | 45.7
2'F-ANA at 1 2 5 7 10 14 | 64
2'F-ANA at 1 4 5 6 9 10 12 13 14 | 58.6
2'F-ANA at 1 3 4 5 6 8 11 12 15 | 95.2
2'F-ANA at 2 4 5 10 11 14 15 | 47.1
2'F-ANA at 1 4 11 13 14 15 | 50.1
2'F-ANA at 1 2 4 5 7 8 10 11 13 15 | 45.3
2'F-ANA at 4 6 10 11 12 14 | 58.6
2'F-ANA at 1 2 4 6 8 9 10 | 50.3
2'F-ANA at 1 4 6 7 10 12 13 | 51.2
2'F-ANA at 1 3 5 6 9 11 15 | 56.5
